Measurements from different studies.
Each numbered part is a random draw from the data of one study; scales do not carry over between parts.

Set 1
Target: Histone acetyltransferase KAT6A, winged helix 2, GST fusion (KAT6A, Homo sapiens, UniProt Q92794, residues 85-181)
Technique: protein binding microarray
Form: double-stranded DNA, one strand shown
Matrix: in vitro
Concentration: not given
Notes: 8-mer, flanks averaged, mean of 2 arrays, mostly near background
Relative to: not given
Direction: higher = stronger binding
Residues (chain): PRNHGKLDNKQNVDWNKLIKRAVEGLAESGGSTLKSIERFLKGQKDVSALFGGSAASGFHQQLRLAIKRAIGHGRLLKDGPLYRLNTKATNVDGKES
Sequence | E-score
CAAAAAGC | 0.11
TGGGACAA | -0.0523
AGTACGTG | -0.277
ATAGTCTC | 0.0119
TTACCAAA | 0.00301
ACAAAAAT | 0.0762
CACCGATG | -0.0701
ATTTAATG | 0.163
ATACAAAA | 0.0686
ATCCAAGG | -0.0702
CATGATCG | -0.237
AGTGGAAT | 0.048
CCTGAGCG | 0.0908
GGCAGCCC | 0.0154
TATCGCGA | 0.105
CTCCGTTA | 0.0835
ATAGCACA | 0.072
CCTGACTC | -0.0506
AGGTGATC | -0.0197

Set 2
Target: Centromere-binding protein 1, full length, N-terminal tag (CBF1, Saccharomyces cerevisiae, UniProt P17106, residues 1-351)
Chain of UniProt P17106 (whole entry, looked up): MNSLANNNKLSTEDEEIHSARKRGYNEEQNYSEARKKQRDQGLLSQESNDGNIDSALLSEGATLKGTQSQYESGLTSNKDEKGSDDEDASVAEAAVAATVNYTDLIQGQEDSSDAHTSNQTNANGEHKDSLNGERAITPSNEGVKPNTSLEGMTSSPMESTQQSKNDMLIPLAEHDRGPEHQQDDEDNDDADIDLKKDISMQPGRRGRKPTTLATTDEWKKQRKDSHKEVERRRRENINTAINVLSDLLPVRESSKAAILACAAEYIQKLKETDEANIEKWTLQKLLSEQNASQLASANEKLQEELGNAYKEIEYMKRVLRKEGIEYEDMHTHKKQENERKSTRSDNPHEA
Technique: protein-binding microarray
Form: double-stranded DNA, one strand shown
Matrix: in vitro
Concentration: 0.8 µM
Notes: whole 60-bp probe, no competitor
Direction: higher = stronger binding
Constant ends, left off below: … GTCTTGATTCGCTTGACGCTGCTG
Sequence | fluorescence intensity [a.u.]
TGTACGAAGCTATGTGGTGTGGTTATAGTAGTTAGG | 527
GAAAATCACGTGTGCCTGACCACCTTCTCCGAGTAG | 10800
GAATTATCTTTTTAACATCAGAATTTCAACAAATAG | 583
GAAACTGATACATATAACGTGTTGGAGTCGTATTAG | 566
CTATTTGCGTTATGAAACGTGATGCTTCGATATTTC | 917
GAATAACGTTATTATATCATGATGTCCGTCATTTAG | 516
TGTACGAAGCTATGTTCCGTCACTATAGTAGTTAGG | 524
CTAGAAAAATTGCGAGACGTGATTGGTGTATCATTC | 626
CTACAAAAAGAAAAGAACACCACGACTAATAAATTC | 564
GAATGACGCAGACGTAACATCAGTCATCAGTTATAG | 549
TGTACGAAGCTATTAAACCACATTATAGTAGTTAGG | 503
TGTACGAAGCTATGCCTGACCACTATAGTAGTTAGG | 490
GAACCCGTGCTAAGGAAGGTGATGAACTTTGGCTAG | 604
GAATACTGAACTTGTTTCATGAGACTCATATCCTAG | 489
TGTACGAAGCTATAGCACGAGAGTATAGTAGTTAGG | 576
TGTACGAAGCTATGCCATCAGTATATAGTAGTTAGG | 506
CTACACTGGAACGGTGATGTAATATGTAGATAGTTC | 567
CTAAAATTAGGAGATCATGAGGGAAAGGTTTAATTC | 554
CTATAGGTTTCTGTACACGTTTTTGAATTTTTTTTC | 681
GAATTGTCAGTAAGTCACGTAGACCTGTATCGGTAG | 3030

Set 3
Target: RING finger protein unkempt homolog, zinc fingers 1-6, GST-SBP tag (UNK, Homo sapiens, UniProt Q9C0B0, residues 30-357)
Technique: RNA Bind-n-Seq
Form: RNA
Matrix: in vitro
Concentration: not given
Notes: RNA with constant flanks, human and mouse sites, ends assumed
Relative to: input RNA pool
Direction: higher = stronger binding
Constant ends, left off below: GGGAGUUCUACAGUCCGACGAUC … CAACAGAGGAUUGAGCAUCA
Construct (chain): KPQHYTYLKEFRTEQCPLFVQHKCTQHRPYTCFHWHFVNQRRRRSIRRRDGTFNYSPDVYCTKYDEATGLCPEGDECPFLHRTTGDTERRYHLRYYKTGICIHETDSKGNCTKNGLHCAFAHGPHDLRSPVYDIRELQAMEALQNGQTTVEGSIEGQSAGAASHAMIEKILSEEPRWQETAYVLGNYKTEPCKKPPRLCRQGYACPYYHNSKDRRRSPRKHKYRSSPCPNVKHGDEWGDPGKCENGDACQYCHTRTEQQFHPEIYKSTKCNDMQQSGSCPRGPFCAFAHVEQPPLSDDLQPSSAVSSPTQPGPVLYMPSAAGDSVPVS
Sequence | bound/input enrichment
GAGCUUUUCUUACCUAUUCAAGGAAUACGUGCCUUUUUCUUAAAUGCUUUCAUUUAUUGAAAAAAAAAAAAAAUGCCCCCAAAGCACUAUGCUGGUCAUGAACUGCUUCAAAAUGUGGAG | 0.279 ratio
CCAUGGACAACAAGCCUUGGGUAACCGGACCAGGCCAAGGGUCUACAAUUCUCCAACGAAUAGCUCCUCUACCCAAGAUUCUAUGGAGGUUGGCCACAGUCACCACUCCAUGACAUCCCU | 0.0554 ratio
GCACAUGGUUUGGGACUUGCACGUUCUGCCAUGGAGGAGUCUUCAGUGACAGUUGGCACAAUAGACGUUUCUUAUCUGCCCAGUUCAUCGGAAUACAGCCUUGGCCGAUGUAAACACACC | 0.224 ratio
AAUUCUUGUAAUAUGUUGAUUCAGUGUUUUGUAAAUGAAGUCGUAUGUAUUUUCAGAGUAUUUUUGUAUGUACUGUAAGAUACCAUCUUUUCAAAGAGAAACGUUUAAAACCUUUAUUGU | 0.136 ratio
GACACUCUCAUCAAGACCUUUGUGCGCUCGCAGACCACCCAAGUGCAUGAUGGGAAAGGUAUUAGAUUUACUGCUAAUGAGGACAUUCGUCCGGAAAAGGGGUCUGGUGUGGACGAUCCU | 0.319 ratio
AAAACAUGGAUGCAUACACCUGAAGCUUUAUCAAAACAUUUCAUUCCCUAUAAUGCAAAGUUUCUUGGCAGUACAGAAGUGGAACAGCCAAAAGGAACAGAAGUUGUGAGAGAUGCUGUA | 0.15 ratio
CCCCCACCGUUCCCUUUGGCUUUUGCACCCCCUUCUUUCCAUACACACACAUACCAUUAUUUUUUGGGCCAUUACCCCAUUUCCCUUAUUGCUGCCAAAACCACAUGGGCUGGGGGCUGG | 1.63 ratio
GAUUACAAACCAUAAAAUGUAUAACGUUUUGAGCAGUAUUCUGUUGGGAUGGAGAUUUUAUAGGUUCAGACAAAUCUUCUAGAUCUGCUUCACCCAGCAUAUUUUCUAUUCAGUGAUAUA | 0.23 ratio
GAGUCACUUCCUCUGGUUGACACCCACUCAAAAAGAACACUCCUGAUUAAGACGGUUGAGACCAGAGAUGGACAGGUGAUCAAUGAGACUUCUCAGCAUCACGAUGACCUUGAAUAAAAA | 0.117 ratio
UUAUCUAAAACAGUGAGAAUUACCUUUGGAUUCAACUGCAGAAAUAAAGAUCAUUAUGGGAUAAUGAUGUAUCACAGAAAUAGACUCAUCAAAGCUUAUGAAAAAGUUGGAUGUCAGUUA | 0.122 ratio
AAAGAUGGCACAUCUUGUCUGACUCAACAGUUUUCCAUUCAUGCUGCUUUAUCAGAGCUCAGAAAGAUGGCCUCAGACAGUUUUCAUAAAUGUCAAAGAGGCACAGGACUUCCCAGGCUG | 0.112 ratio

Set 4
Target: RNA binding protein fox-1 homolog 2, RRM domain, GST-SBP tag (RBFOX2, Homo sapiens, UniProt O43251-10, residues 100-194)
Technique: RNA Bind-n-Seq
Form: RNA
Matrix: in vitro
Concentration: 365 nM
Notes: natural RNA segment, single round, ends assumed
Relative to: no-protein control
Direction: higher = stronger binding
Constant ends, left off below: GGGAGUUCUACAGUCCGACGAUC … UGGAAUUCUCGGGUGCCAA
Construct (chain): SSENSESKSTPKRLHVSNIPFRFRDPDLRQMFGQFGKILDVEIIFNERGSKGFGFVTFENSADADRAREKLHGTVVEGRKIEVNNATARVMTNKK
Sequence | RBNS enrichment (R)
GGUGAGUGGCUGGUUCCAGGGUGGGCCGGUGCCAGCUCCGGGGUGGACUGAACAGCGGCGGCUGUCCCUGUGCAUCCUUUGAUUACUCUCAUGCUGCAUUUACUGUUUAC | 0.585
AUAAAGAAGGGCAGUGUGAACCCAGGCAGUUGAUGUCAUGAUUCCAUGUGGCCAGUCCUGUGGGACUUAGGGUCCCAACCUGUAUAUUCUGUCUCAAAGAACAUUAAACU | 0.264
AUUACCUAGCAGGAGUCGUGGAAAGGAUGGCGUCUGAUCUGCACGAUGACACCACUGAAUGUUUAGGUGGGCUAGCAUUAGCGACCCUUGUUGGCCACUUUUCAGUCCUG | 2.26
AAGUUCCCGUUGAGGAGGAGGCCCUUCAAUUGAGACUGUCCAGAGCUGUGACAAUGCACCAUAUUGAAGGGGUUAUCCUGUUAAUGCUCAUUUUUUCCUCUAAUUCAUAA | 0.529
CGCAGGCGGGGCAGUAUGUGAUGGACUGGGGAGCACAGGUGUCUGCCUAGAUCCACGUGUGGCCUCCGUCCUGUCACUGAUGGAAGGUUUGCGGAUGAGGGCAUGUGCGG | 4.54
CAGCAUGCAGAACAAAAACUUUAAACUUUCUCUCUCACUAUACAGUAUAUUGUCAUGUGAAAGUGUGGAAUGGAAGAAAUGUCGAUCCUGUUGUAACUGAUUGUGAACAC | 0.718
AGGCAACUCGUACCCAAAUUUCCAAGACACAAACAUGACCUAUCCAAGCGCAUUACCCACUUGUGGCCAAUCAGUGGCCAGGCCAACCUUGGCUAAAUGGAGCAGCGAAA | 0.655
UAACCAUUCCUUCCUCCAUCAGCCCCCAGCUUUUUUUCCUGGUAUCUGAGGUCCCAGGAGGAGGCUCAGGAUUCCCUGGUGGGUCUGGAUGUCCCUUGGGUCAGAGGUCA | 0.282
GUAUUACGUAUAAAUUAAUAUAAAAUGAUUACCUCUGGUGUUGACAGGUUUGAACUUGCACUUCUUAAGGAACAGCCAUAAUCCUCUGAAUGAUGCAUUAAUUACUGACU | 0.614
UAAAAUCACUUCUCUCUUUACAUAUUUCGAACAUAUGUUUGCUUUCUACACUUUGCAGAUUUUAUUUAGGAUUUAAUUCUUUAAAGACUAUAUUCAUUUAGUCACUAUAG | 0.581
GCCCUCAGUGAACUACCCAGCAGGGCUGAUCGCAUUGAGGUCAUUCAGAACUUGUGGCGUAAGACAAGCCAUUUUCUGGUAUUGGUGGAGAACGGAACCAAAGCUGGGCA | 0.552
CCAUCUAGCAGCUGGCCUAAUCACUCUGAGUCACAGGUGUGGGAUGGAGAGUGGGGAGAGGCACUUAAUCUGUAACCCCCAAGGAGGAAAUAACUAAGAGAUUCUUCUAG | 0.558
